Measured values pooled from the literature.
Protocols differ between the studies behind these lines. ± gives the spread as reported.
HDAC1: Histone deacetylase 1 (HDAC1, Homo sapiens, UniProt Q13547)
UniProt Q13547, sequence (whole entry, looked up): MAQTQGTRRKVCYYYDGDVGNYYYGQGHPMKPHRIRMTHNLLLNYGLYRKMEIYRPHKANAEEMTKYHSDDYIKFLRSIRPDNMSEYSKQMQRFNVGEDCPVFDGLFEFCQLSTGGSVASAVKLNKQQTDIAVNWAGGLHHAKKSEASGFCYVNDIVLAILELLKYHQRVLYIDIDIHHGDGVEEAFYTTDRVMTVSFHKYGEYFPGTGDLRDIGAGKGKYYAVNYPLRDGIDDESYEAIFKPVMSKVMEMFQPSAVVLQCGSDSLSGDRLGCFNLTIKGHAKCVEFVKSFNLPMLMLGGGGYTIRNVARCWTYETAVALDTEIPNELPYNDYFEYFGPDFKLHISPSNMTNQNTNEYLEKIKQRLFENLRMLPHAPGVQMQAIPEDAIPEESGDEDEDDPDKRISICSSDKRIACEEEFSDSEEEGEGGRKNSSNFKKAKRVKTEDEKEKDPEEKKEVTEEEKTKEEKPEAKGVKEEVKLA
Kir3.1/Kir3.2: Kir3.1/Kir3.2 (Homo sapiens, UniProt P48051+P48549)
UniProt P48051, sequence (whole entry, looked up): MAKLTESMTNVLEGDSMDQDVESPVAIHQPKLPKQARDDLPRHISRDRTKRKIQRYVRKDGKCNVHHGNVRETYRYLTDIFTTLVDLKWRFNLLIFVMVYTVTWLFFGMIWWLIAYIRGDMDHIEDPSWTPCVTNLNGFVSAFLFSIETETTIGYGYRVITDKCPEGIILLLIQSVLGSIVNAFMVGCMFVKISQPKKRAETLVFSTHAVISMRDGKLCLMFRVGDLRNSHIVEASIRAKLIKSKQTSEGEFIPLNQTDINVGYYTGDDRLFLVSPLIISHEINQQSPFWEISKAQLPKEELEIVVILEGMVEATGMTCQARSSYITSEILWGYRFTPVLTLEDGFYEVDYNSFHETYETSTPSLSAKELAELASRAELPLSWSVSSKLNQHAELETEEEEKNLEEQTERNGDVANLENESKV
UniProt P48549, sequence (whole entry, looked up): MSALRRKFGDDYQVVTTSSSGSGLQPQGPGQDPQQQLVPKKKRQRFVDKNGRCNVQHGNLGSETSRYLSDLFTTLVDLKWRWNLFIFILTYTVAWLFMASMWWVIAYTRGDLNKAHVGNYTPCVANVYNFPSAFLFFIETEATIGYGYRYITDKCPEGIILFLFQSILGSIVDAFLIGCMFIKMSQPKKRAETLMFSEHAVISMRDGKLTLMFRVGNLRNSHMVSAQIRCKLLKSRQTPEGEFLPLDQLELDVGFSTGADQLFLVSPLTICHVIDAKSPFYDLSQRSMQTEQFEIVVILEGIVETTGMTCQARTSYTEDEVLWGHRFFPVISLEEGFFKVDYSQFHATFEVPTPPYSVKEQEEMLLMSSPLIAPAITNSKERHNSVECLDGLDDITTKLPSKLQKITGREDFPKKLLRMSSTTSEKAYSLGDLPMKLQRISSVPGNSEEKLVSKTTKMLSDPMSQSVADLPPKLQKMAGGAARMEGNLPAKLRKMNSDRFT
BACE1: Beta-secretase 1 (BACE1, Homo sapiens, UniProt P56817)
UniProt P56817, sequence (whole entry, looked up): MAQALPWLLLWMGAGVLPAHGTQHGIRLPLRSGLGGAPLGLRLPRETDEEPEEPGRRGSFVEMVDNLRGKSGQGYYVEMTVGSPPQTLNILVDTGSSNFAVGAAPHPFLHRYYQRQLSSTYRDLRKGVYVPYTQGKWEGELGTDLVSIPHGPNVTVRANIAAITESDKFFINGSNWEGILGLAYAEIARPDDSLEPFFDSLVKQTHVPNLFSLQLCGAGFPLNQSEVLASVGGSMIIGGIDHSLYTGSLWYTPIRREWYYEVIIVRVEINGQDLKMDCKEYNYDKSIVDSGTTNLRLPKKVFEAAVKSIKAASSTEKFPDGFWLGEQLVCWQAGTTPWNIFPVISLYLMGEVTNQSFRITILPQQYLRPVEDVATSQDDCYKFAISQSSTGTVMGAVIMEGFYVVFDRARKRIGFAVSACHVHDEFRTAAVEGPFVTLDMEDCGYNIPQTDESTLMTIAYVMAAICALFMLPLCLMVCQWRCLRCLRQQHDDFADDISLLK
CHRM1: Muscarinic acetylcholine receptor M1 (CHRM1, Homo sapiens, UniProt P11229)
UniProt P11229, sequence (whole entry, looked up): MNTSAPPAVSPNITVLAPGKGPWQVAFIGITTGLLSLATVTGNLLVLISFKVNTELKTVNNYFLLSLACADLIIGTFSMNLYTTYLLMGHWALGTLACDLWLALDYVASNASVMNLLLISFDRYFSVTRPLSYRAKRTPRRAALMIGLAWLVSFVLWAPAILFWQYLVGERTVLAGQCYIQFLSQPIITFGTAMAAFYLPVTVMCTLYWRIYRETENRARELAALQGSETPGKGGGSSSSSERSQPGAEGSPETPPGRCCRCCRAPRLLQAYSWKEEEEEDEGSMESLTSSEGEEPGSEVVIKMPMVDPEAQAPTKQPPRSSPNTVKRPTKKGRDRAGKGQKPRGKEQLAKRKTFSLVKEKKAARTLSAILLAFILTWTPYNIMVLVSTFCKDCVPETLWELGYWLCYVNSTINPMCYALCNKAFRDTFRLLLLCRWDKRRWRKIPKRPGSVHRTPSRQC
UniProt P28062, sequence (whole entry, looked up): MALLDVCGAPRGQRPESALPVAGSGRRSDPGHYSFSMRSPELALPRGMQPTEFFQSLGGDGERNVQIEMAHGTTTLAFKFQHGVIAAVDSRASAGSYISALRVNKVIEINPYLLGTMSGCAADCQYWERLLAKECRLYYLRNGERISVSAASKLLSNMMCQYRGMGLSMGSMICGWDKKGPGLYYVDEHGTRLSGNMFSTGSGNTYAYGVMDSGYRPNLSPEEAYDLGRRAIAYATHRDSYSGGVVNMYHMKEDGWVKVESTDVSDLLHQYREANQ
UniProt Q9Y6E0, sequence (whole entry, looked up): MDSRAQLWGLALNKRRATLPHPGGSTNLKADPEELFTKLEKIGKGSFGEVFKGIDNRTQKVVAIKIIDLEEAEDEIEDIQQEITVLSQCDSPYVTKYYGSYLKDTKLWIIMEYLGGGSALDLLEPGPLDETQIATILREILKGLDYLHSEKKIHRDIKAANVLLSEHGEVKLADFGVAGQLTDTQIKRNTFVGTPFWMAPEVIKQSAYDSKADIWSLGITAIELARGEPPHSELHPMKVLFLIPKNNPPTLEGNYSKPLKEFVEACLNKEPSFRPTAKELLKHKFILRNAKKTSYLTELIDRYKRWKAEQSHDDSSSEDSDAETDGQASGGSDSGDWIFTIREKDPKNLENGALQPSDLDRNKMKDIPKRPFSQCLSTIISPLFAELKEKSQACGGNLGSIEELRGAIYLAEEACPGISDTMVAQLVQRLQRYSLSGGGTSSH
UniProt P20618, sequence (whole entry, looked up): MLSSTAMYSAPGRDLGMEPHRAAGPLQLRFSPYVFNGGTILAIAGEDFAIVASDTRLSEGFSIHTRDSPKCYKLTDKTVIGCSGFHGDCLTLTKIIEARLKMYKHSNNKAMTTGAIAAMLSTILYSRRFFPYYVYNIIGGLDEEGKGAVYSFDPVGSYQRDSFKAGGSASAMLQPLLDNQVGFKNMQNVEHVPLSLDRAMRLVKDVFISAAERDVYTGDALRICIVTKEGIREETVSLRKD

For CC(C)[C@H](NC(=O)[C@@H]1CCCN1C(=O)[C@H](CCCNC(=N)N)NC(=O)[C@H](CS)NC(=O)[C@H](Cc1c[nH]c2ccccc12)NC(=O)[C@H](CCCNC(=N)N)NC(=O)[C@@H](Cc1ccccc1)NC(=O)[C@H](Cc1c[nH]cn1)NC(=O)[C@H](CCC(=O)O)NC(=O)[C@H](CS)NC(=O)[C@H](CS)NC(=O)[C@H](CCCCN)NC(=O)[C@@H]1CC(=O)N[C@@H](CCCNC(=N)N)C(=O)N[C@@H](C)C(=O)N[C@@H](CC(=O)O)C(=O)N[C@H](Cc2ccc(O)cc2)C(=O)N1)C(N)=O [technetium-99m labelled], the tissue uptake was 0.46 ± 0.11 %ID/g (C57 mice, lung; intravenous, 0.037 MBq, 4 h).
For Cc1cc(C(C)Nc2ccccc2)c2nc(N3CCOCC3)cc(=O)n2c1 (centres unmarked), the IC50 was 860 nM (Phosphatidylinositol 4,5-bisphosphate 3-kinase catalytic subunit alpha isoform (PIK3CA, Homo sapiens, UniProt P42336, Q859D); enzyme activity, inhibitor).
For Cc1ccccc1-c1ccc(Cn2cccc(O)c2=S)cc1, the IC50 was > 10000 nM (HDAC1; enzyme activity, inhibitor, SAMDI mass spectrometry).
With N=c1n(Cc2ccccc2)c2ccccc2n1CC(O)CN1CCOCC1 (centres unmarked) the IC50 was 15300 nM (Kir3.1/Kir3.2; ion flux).
CC(=O)NCC(=O)N1[C@@H]2CC[C@H]1c1ccc(Nc3ncc(C(F)(F)F)c(NC4CCC4)n3)cc12 has an IC50 of 23 nM (Serine/threonine-protein kinase 24 (STK24, Homo sapiens, UniProt Q9Y6E0); enzyme activity, inhibitor, radiometric).
CCc1ccc(C2=C/C(=C/c3ccco3)C(=O)O2)cc1 gave an IC50 of 53000 nM (Sonic hedgehog protein, N-terminal signaling domain (Homo sapiens, UniProt Q15465); heparin binding, inhibitor, fluorescent heparin competition, refers to: ShhN; solid-phase).
Nc1ncnc2c1ncn2[C@@H]1O[C@H](COP(=O)(O)OP(=O)(O)C(Cl)(Cl)P(=O)(O)O)[C@@H](O)[C@H]1O gave an IC50 of 140 nM (Protein kinase C delta type (PRKCD, Homo sapiens, UniProt Q05655); enzyme activity, inhibitor, HotSpot kinase; with: ATP 1 µM).
With O=C(NNC(=O)c1ccc(CNS(=O)(=O)c2ccc(F)c(Cl)c2)cc1)c1ccccc1 the IC50 was 230 nM (Glutamate NMDA receptor; Grin1/Grin2a (Grin1/Grin2a, Rattus norvegicus, UniProt P35439+Q00959, V783A); ion current, two-electrode voltage clamp; oocytes).
With NCCCCCO[C@H]1O[C@H](COS(=O)(=O)O)[C@@H](O[C@@H]2O[C@@H](C(=O)O)[C@@H](O[C@H]3O[C@H](COS(=O)(=O)O)[C@@H](O[C@@H]4O[C@H](C(=O)O)[C@@H](O)[C@H](O)[C@H]4O)[C@H](O)[C@H]3NS(=O)(=O)O)[C@H](O)[C@H]2O)[C@H](O)[C@H]1NS(=O)(=O)O the IC50 was 195000 nM (BACE1; enzyme activity, inhibitor, FRET; pH 4.5).
For CC[C@H](C)[C@H](NC(=O)[C@H](CCC(=O)O)NC(=O)[C@H](CO)NC(=O)[C@@H](NC(=O)[C@@H](N)CO)C(C)C)C(=O)N[C@@H](CCC(N)=O)C(=O)N[C@@H](CC(C)C)C(=O)N[C@@H](CCSC)C(=O)N[C@@H](Cc1cnc[nH]1)C(=O)N[C@@H](CC(N)=O)C(=O)N[C@@H](CC(C)C)C(=O)NCC(=O)N[C@@H](CCCCN)C(=O)N[C@@H](Cc1cnc[nH]1)C(=O)N[C@@H](CC(C)C)C(=O)N[C@@H](CC(N)=O)C(=O)N[C@@H](CO)C(=O)N[C@@H](CCSC)C(=O)N[C@@H](CCC(=O)O)C(=O)N[C@@H](CCCN=C(N)N)C(=O)N[C@H](C(=O)N[C@@H](CCC(=O)O)C(=O)N[C@@H](Cc1c[nH]c2ccccc12)C(=O)N[C@@H](CC(C)C)C(=O)N[C@@H](CCCN=C(N)N)C(=O)N[C@@H](CCCCN)C(=O)N[C@@H](CCCCN)C(=O)N[C@@H](CC(C)C)C(=O)N[C@@H](CCC(N)=O)C(=O)N[C@@H](CC(=O)O)C(=O)N[C@H](C(=O)N[C@@H](Cc1cnc[nH]1)C(=O)N[C@@H](CC(N)=O)C(=O)N[C@@H](Cc1ccccc1)C(=O)O)C(C)C)C(C)C, “remaining intact compound” read 0% (Serine protease 1 (PRSS1, Bos taurus, UniProt P00760); substrate, HPLC-UV; Tris buffer; 30 min, pH 6.5, 37 °C, with: bovine trypsin 0.5 mg, no SBTI).
CC(C)(C)OC(=O)n1c(-c2ccccc2)cc2ccccc21 has a viability of 27.6 ± 2.4% (RAW264.7; sulforhodamine B; 50 µM, 20 h; baseline: vehicle).
O=C(Nc1cc(C(=O)Nc2ccc(S(=O)(=O)O)cc2S(=O)(=O)O)cc(C(=O)Nc2ccc(S(=O)(=O)O)cc2S(=O)(=O)O)c1)Nc1cc(C(=O)Nc2ccc(S(=O)(=O)O)cc2S(=O)(=O)O)cc(C(=O)Nc2ccc(S(=O)(=O)O)cc2S(=O)(=O)O)c1 gave an IC50 of 98700 ± 9600 nM (MBNL1 (CAG)20 RNA interaction; binding, inhibitor, filter binding; with: MBNL1 200 nM).
For Cc1ccc(S(=O)(=O)N[C@H](CC(=O)N[C@@H](C)C(=O)NCc2cccc3ccccc23)CC(=O)NC(C)(C)C)cc1, the IC50 was 14 ± 2 nM (Proteasome component C5/PSMB8 (Homo sapiens, UniProt P20618+P28062); chymotrypsin-like activity, inhibitor; with: ac-ANW-AMC).
Nc1nnc(-c2cccc(Cl)c2Cl)c(N)n1 gave an IC50 of 12200 ± 500 nM (Sodium channel protein type 5 subunit alpha (SCN5A, Homo sapiens, UniProt Q14524); late sodium current, inhibitor; ramp protocol; baseline: ranolazine 300 µM).
COc1ccc(OCC(O)Cn2c(=N)n(Cc3ccccc3)c3ccccc32)cc1 (centres unmarked) gave an IC50 of 1500 nM (Kir3.1/Kir3.2; ion flux).
For CC(C)C[C@H](NC(=O)[C@H](CO)NC(=O)[C@H](CCCNC(=N)N)NC(=O)[C@H](CC(=O)O)NC(=O)[C@H](CCC(=O)O)NC(=O)[C@H](C)NC(=O)[C@@H]1CCCN1C(=O)[C@H](C)NC(=O)[C@H](CCC(=O)O)NC(=O)[C@@H]1CCCN1C(=O)[C@@H]1CCCN1)C(N)=O, the DOPAC level was 58 ± 46 ng/g (HPLC-EC; rat F344, unilateral 6-OHDA lesion, ipsilateral striatum; intranasal, 300 µg daily, 5 weeks post lesion).
The IC50 of C[C@]12C[C@@H]3C[C@](C)(C1)C[C@@](NC(=O)Nc1ccc(C(=O)N4CCC[C@H](C(=O)NCCCCCC(=O)NO)C4)cc1F)(C3)C2 is reported as 0.6 nM (Bifunctional epoxide hydrolase 2 (Ephx2, Mus musculus, UniProt P34914); enzyme activity, inhibitor, fluorescence).
O=c1cc(-c2ccccc2OCc2ccc(Br)cc2)ncn1C1CCCCC1O (centres unmarked) — result for “ΔpEC50 of ACh”: 1.08 ± 0.44 log units (CHRM1; positive allosteric modulator, IP1 accumulation; CHO-M1 cells; 10 µM, 60 min, 37 °C, with: ACh; baseline: ACh alone, higher = stronger potentiation).
For CN1CCc2ccccc2C1Cc1ccccc1NC(=O)c1sc2ccccc2c1Cl (centres unmarked), the IC50 was 67600 nM (BACE1; enzyme activity, inhibitor, FRET; pH 4.5).
The IC50 of S=c1[nH]nc(-c2ccc(-c3cccc(Cl)c3)o2)s1 is reported as 2000 ± 1100 nM (Runt-related transcription factor 1, Runt domain; with CBFβ (Homo sapiens, UniProt Q01196); Runt domain-CBFβ binding, inhibitor, FRET; with: Cerulean-Runt and Venus-CBFβ 100 nM).
The IC50 of CC(C)NCc1ccc(C[C@@H]2NC(=O)[C@@H](N(C)C(=O)c3ccc4ccccc4c3)NC(=O)[C@H](Cc3ccccc3)NC(=O)[C@H](N)CSSC[C@@H](C(=O)N[C@@H](Cc3ccc4ccccc4c3)C(N)=O)NC(=O)[C@H](Cc3ccccc3)NC2=O)cc1 is reported as 63 nM (Somatostatin receptor type 4 (SSTR4, Homo sapiens, UniProt P31391); ligand displacement, radioligand; cell membranes).
The IC50 of Oc1cccn(Cc2cn(-c3ccccc3)nn2)c1=S is reported as > 10000 nM (HDAC1; enzyme activity, inhibitor, SAMDI mass spectrometry).
O=C(O)c1ccc(COc2ccccc2-c2cc(=O)n(C3CCCCC3O)cn2)cc1 (centres unmarked): “ΔpEC50 of ACh” 1.1 ± 0.14 log units (CHRM1; positive allosteric modulator, IP1 accumulation; CHO-M1 cells; 10 µM, 60 min, 37 °C, with: ACh; baseline: ACh alone, higher = stronger potentiation).
